Published values collected from several papers.
Numbered parts are unrelated; each lists some results of a single study.

Study 1
Target: RNA binding protein fox-1 homolog 2, RRM domain, GST-SBP tag (RBFOX2, Homo sapiens, UniProt O43251-10, residues 100-194)
Method: RNA Bind-n-Seq
Form: RNA
Matrix: in vitro
Tested at: 365 nM
Setting: natural RNA segment, single round, ends assumed
Reference: no-protein control
Reading: higher = stronger binding
Constant ends, left off below: GGGAGUUCUACAGUCCGACGAUC … UGGAAUUCUCGGGUGCCAA
Residues (chain): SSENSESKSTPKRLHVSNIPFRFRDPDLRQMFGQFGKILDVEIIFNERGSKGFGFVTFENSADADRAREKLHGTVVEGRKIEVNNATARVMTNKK
| Strand | RBNS enrichment (R) |
| --- | --- |
| UCUUCCAAAAGUCACUUGAUUUAAGGGUUAUCCACAAGUUGUGCUUAUUUUGAUAUAGCAUUUGUUUCCUAAAUGUUUACUAAUCACUUUAUGCCAAAUGUCUUGCAGAU | 0.285 |
| CAGUAGCACAUUAAUUUAAAUCUGUGUUUUUAACUACCGUGGGAGGAACUAUCCCACCAAAGUGAGAACGUUAUGUCAUGGCCAUACAAGUAGUCUGUCAACCUCAGACA | 0.459 |
| CAUUUGACACCUUUUUAAAUAUCAGGACAAGUCUGAAACAAAGUAGUAAAAUGUAUAUAACUCUUACCUGUUGUCAUUCUUUUUCUUUUAAAUUUGUUGCUAAUCUCUGA | 0.411 |
| AGAGCAUUGUUAUUAAGGAUGCAUGACAGGAAUGUUGGCAGAACUGGAAAGUAUUAAAAAAGCAUUAUCAGACAGUCUUGAUAUUAUACAUUUUCAGAAAUAUAUUAAAA | 1.77 |
| GCAAUCCUGCCGCUAUAGUGAGCUAAUGUCCUGAAUCCAAAGGCUUCAGAAAAUUGCUUUUGCCUUUUUCAUGAAUGUUAAGCAGCAGCAUUGUGAGAUCGAUCUGUCCU | 0.619 |
| UGCCUGGGGACCUCAGAUGGGAGGAGUGUGUCAGUUGUACCCCGACAGAAAUGUCUCUGGGAUCUGUGGCUGGCUUGCCCCGGGCAUCUCUCCUUUAAGCUCAAGUUUUG | 0.434 |
| AAUCAGACUGAGGAAGCUGUGACAUAGGACUUGAAGACCAAAGACUUUGAAAUUUGCGAGCUGCUCAUGUGUGAGUUAUUAUCACUGCUGUCUUUCUAUUGAGUUACAAA | 0.796 |
| CCAGGAGUUUGAGACUAGACUGGGCAACAUAGCAAGACCCCGUCUCUACAAAGCACAACGAAAAACAACAAAUGGAGUUGUGCUAUGUUGUAUUGCUUUGCACAAAAUUA | 0.48 |

Study 2
Target: Fragile X messenger ribonucleoprotein 1, C-terminal low-complexity region (Fmr1, Mus musculus, UniProt P35922)
Method: RNA Bind-n-Seq
Form: RNA
Matrix: in vitro
Tested at: 200 nM
Setting: whole 134-nt RNA, ends assumed
Added: 150 mM LiCl
Reference: input library
Reading: higher = stronger binding
Library: 7-deaza-guanosine replaces G
Constant ends, left off below: GGGAGUUCUACAGUCCGACGAUC … UGGAAUUCUCGGGUGUCAAGG
| Strand | log2 enrichment |
| --- | --- |
| UGGGAGGUGGAUUUUGUUUAUUUUUUUAGCUCAUUUCCAGGGGUGGGAAUUUUUUUUUAAUAUGUGUCAUGGAUAAAGUUGUUUUUGAAA | 0.297 |
| CCUCAAGUCCUGUGCUACACAUCGUAUGUACCGAAUCGGUGGAAAGGAAAGGAAAGUAUUAUGUUACGCCGUUCGGAUCUGCACUUCCAG | 0.536 |
| GAGCAAAGAGCCAUUCAGCUUCAGUCUUUACAUACCAUGAAUAAAACAUUAAAACAUCAUAUGGAGAAGUUUACAUGGUGAUUGUUCACC | 0.372 |
| ACCAUGCAGGUGGGCAUAUUUGGGAAGUGGGGCAAGGGGGGGAUAGGGAGGGGGGUAACACUUUGGGAACAGGUGGUCCCAGGUCGUUUC | 1.44 |
| UCUGGACAUGCAGGUGGACCAGUCAGUGCCAGAGUAAGUUGUUGUUUUCUUAAAAGAAAAAAAAAAAUGUAAAAUCAUCUAACCCUAACC | -0.619 |
| AAGUCCUGUGCUACACAUCGUAUGUACCGAAUCGGCCCCCGGCCCCCGGGCCCCCGGAAAGUAUUAUGUUACGCCGUUCGGAUCUGCACU | -0.706 |
| CCUGUGCUACACAUCGUAUGUACCGAAUCAAACCCCCCCAAACCCCCCCAAAUUUUUAAAAAAGUAUUAUGUUACGCCGUUCGGAUCUGC | 2.27 |
| UGGCCCUGGUGGCAUGCGGGGAGGAAGAGGUGGCCUCAUGGAUCGUGGUGGUCCCGGUGGAAUGUUCAGAGGUGGCCGUGGGGGAGACAG | -0.303 |

Study 3
Target: Prothrombin, mature alpha-thrombin (F2, Homo sapiens, UniProt P00734)
Method: aptamer microarray, sandwich
Form: DNA with 2'F-ANA
Matrix: in vitro
Tested at: 200 nM
Setting: whole 15-mer aptamer, many near background
Added: Cy3 exosite-II aptamer, 400 nM
Reading: higher = stronger binding
Strand: GGTTGGTGTGGTTGG
| Modification | mean fluorescence intensity [a.u.] |
| --- | --- |
| 2'F-ANA at 1 5 7 10 11 12 13 14 15 | 47.8 |
| 2'F-ANA at 2 4 7 10 11 12 14 15 | 67.6 |
| 2'F-ANA at 3 4 5 6 10 11 | 50.7 |
| 2'F-ANA at 1 3 5 8 10 13 14 15 | 49.5 |
| 2'F-ANA at 1 2 3 5 9 10 11 13 14 15 | 49 |
| 2'F-ANA at 6 8 10 12 13 15 | 173 |
| 2'F-ANA at 1 4 5 8 10 13 | 46.9 |
| 2'F-ANA at 1 5 6 8 9 12 13 15 | 79.8 |
| 2'F-ANA at 1 3 8 9 11 13 15 | 325 |
| 2'F-ANA at 4 9 12 | 560 |
| 2'F-ANA at 1 3 5 6 7 8 9 10 14 15 | 50.9 |
| 2'F-ANA at 1 3 5 6 10 12 14 | 47.9 |
| 2'F-ANA at 3 5 6 9 11 13 | 86.6 |
| 2'F-ANA at 1 2 4 5 6 7 10 15 | 45.5 |
| 2'F-ANA at 1 4 5 6 7 8 12 14 15 | 49.8 |
| 2'F-ANA at 1 2 4 6 7 12 13 15 | 188 |
| 2'F-ANA at 1 3 6 7 9 10 12 15 | 108 |

Study 4
Target: Histone acetyltransferase KAT6A, winged helix 1, GST fusion (KAT6A, Homo sapiens, UniProt Q92794, residues 1-85)
Method: protein binding microarray
Form: double-stranded DNA, one strand shown
Matrix: in vitro
Tested at: not given
Setting: 8-mer, flanks averaged, mean of 2 arrays, mostly near background
Reference: not given
Reading: higher = stronger binding
Residues (chain): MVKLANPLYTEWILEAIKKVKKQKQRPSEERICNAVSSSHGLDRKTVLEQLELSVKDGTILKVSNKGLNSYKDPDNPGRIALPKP
| Strand | E-score |
| --- | --- |
| CCTATCTC | -0.149 |
| GGGATACC | 0.111 |
| CCGTTTAA | 0.185 |
| GTCTCGGA | 0.0832 |
| CATTGGTC | -0.176 |
| TAGTGATA | -0.0878 |
| CCCACACC | -0.0683 |
| AGGTTCGC | 0.157 |
| CATTTCTA | -0.0201 |
| CAAAACAA | -0.148 |
| ATAGGACC | -0.0573 |
| AATGTACT | -0.00604 |
| GCGGTACC | 0.4 |
| AACTCTAC | -0.105 |
| GAATGAGA | -0.0598 |
| CCAACTAG | -0.128 |
| ATTTTATA | 0.0715 |
| CATACTCG | 0.181 |
| TAGTCGCA | -0.0334 |
| CCGCGATA | 0.353 |
| ACTAGTGG | -0.285 |
| TAAGACGA | -0.104 |
| CCGCGCTC | 0.378 |
| CTTACCAC | -0.0298 |
| CCAGTTCC | 0.0518 |

Some of these lines once more (study 4):
| Strand | E-score |
| --- | --- |
| GCGGTACC | 0.4 |
| CCGCGATA | 0.353 |
| CATTGGTC | -0.176 |
| CATTTCTA | -0.0201 |
| TAGTCGCA | -0.0334 |
| GGGATACC | 0.111 |
| TAAGACGA | -0.104 |
| GTCTCGGA | 0.0832 |
| ATAGGACC | -0.0573 |
